# Results from different studies.
# Every numbered part comes from another study and shows a few of its results, in no order.

# Study 1 — technique: RNA Bind-n-Seq; form: RNA; matrix: in vitro; concentration: 365 nM; reference: no-protein control; reading: higher = stronger binding
# Target: RNA binding protein fox-1 homolog 2, RRM domain, GST-SBP tag (RBFOX2, Homo sapiens, UniProt O43251-10, residues 100-194)
# Notes: natural RNA segment, single round, ends assumed
# Construct (chain): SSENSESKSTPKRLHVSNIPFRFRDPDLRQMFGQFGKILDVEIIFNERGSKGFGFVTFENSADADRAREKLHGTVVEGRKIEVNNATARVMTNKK
Sequence,RBNS enrichment (R)
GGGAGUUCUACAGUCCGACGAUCCCAGUCACCCAGGGAAUAACAACUUAAGCUGUAGUUAGAUAACACCUAGUGAUUAAUUGGCUGAGAAAACCCUGGAGUGGAGGGAGGCUCAGAGAUACUGAUAUGGAUGUUGGAAUUCUCGGGUGCCAA,0.561
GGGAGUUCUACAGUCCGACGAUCCCUCUCGGGACUCCUGUUGUAGGUGGUCCCAGUCACAAGAAACCCUCUCCAGGCAAGAGGCCAUUCAGUCUGUACAUUGUCGGGACCGGAGAGGUGGGACUGCCAUCUGGUGGAAUUCUCGGGUGCCAA,0.288
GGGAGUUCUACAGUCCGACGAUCUUUACUGUGACUUCAUGAAGAAUAUAAUUGCAAUAUCACCUAAAUUUUUAUCCUGGCUGGGAUGGGGCAGAUUCUUACUAUGGACAAUUUCUGGAACUUACAGUAUGAAGUGGAAUUCUCGGGUGCCAA,0.908
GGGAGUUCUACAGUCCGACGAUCCUCUCUCCCAAUAAGAAGCAGGUGCCUUUGGGGAAUGCUCCAACCUGUUUCAUCCCCAAAAGUUUUUCCGAGGACACUGUCAUGCACGACCUCACAUUUCUAAAAGACCUUGGAAUUCUCGGGUGCCAA,3.96
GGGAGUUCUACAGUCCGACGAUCAGACCCAGAGUCUGGAAGCUUCACACUGAGUUGGUGACUCCAGCUUCUAUCUCCUGGAGGUCCCAAGAUGAUUCAUAAAUACUGCCUGGUGCACAGUGCCCAAACAGCAAUGGAAUUCUCGGGUGCCAA,0.299
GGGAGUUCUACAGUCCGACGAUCUGCUCCCGCACUCUGAGAAGUGGGUCAGGUGAUGAUCCCUGCACUUGAUUGAGAUCAGAAUCCAUCAGGGUCUUAGACUCUGCCCCCCCUCACCCCACUCUCUUCCCAUGUGGAAUUCUCGGGUGCCAA,0.34
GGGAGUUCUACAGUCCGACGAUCUAUAAAUCUGUCUGUUUAGAAUCUGUGCUGUGUAAGGGCAUUCGUACUCAUGCUGUUACUGUACUUAUGCACCAUUCAGACUUGUUAGAGUAGAUGUGGGUUUAUGACUGUGGAAUUCUCGGGUGCCAA,0.385
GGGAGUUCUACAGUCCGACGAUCAAUCACUUCUUGAAGAAGUAUAAUUGUAAAUAAGCCAUGUAAAAUGCCUUUUUAAAAUUUAAUUUUCUAGCUGGCUCCAAUUCAAAUUGAGGAUUUAUGUAUUAGGCCACUGGAAUUCUCGGGUGCCAA,0.61
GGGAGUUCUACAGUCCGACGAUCUUAAGAGAAACUACUUGGCCAAACUGGCCAAGACGCAGCAAGCAGCAGCAGGAACAAAGCAGGCUUACUGCUGUCAACACUGCUUAAAAUGCUUUCAUGUCCUAGGUAAAUGGAAUUCUCGGGUGCCAA,0.291

# Study 2 — technique: protein-binding microarray; form: double-stranded DNA, one strand shown; matrix: in vitro; concentration: 250 nM; notes: 60-bp whole probe; added: salmon DNA 0.4 mg/ml; reference: random background probes; reading: higher = stronger binding; constant ends, left off below: GCCTAGCAC … GTCTTGATTCGCTTGACGCTGCTG
# Target: Interferon regulatory factor 5, full length, phosphomimetic (IRF5, Homo sapiens, UniProt Q13568-2, residues 1-514, K96S/S451D/S453D/S456D/S462D)
Sequence,log fluorescence [z-score]
GACGGTTTAGGACTGGGGACGTGCTAG,-0.164
CTCGCTATGTTGTCCAGGCTGGTGCTA,-0.542
GACGGTTTCGGGTTTCGCGACGTGCTA,7.52
AGAGGCGGGAGGGGGCGGGGGTGCTAG,2.56
GACGATTTCGGGTATTGAGACGTGCTA,3.99
TTAGATTTCAGAATGGATTAGTGCTAG,0.909
TTGGAACTGGGGTTTCGATTAGTGCTA,5.43
GACGGTCTCGGCATCGGGACGTGCTAG,-0.0853
TCACTTTTCATTACTGCACTGTGCTAG,1.97
GACGATATCAGTTTGGAGACGTGCTAG,1.22
TTAGATTTCTGTTCCGATTAGTGCTAG,3.45
GACGGTCTCCTTATACTGACGTGCTAG,-0.113
TCATTTCTCAACCTCCAACTGTGCTAG,0.672
TCAGATCTCAGTATCGATTAGTGCTAG,6.49
GACTGTATCCTTATCCTGACGTGCTAG,0.235
TTAGATTTTAGTTTCGATTAGTGCTAG,10.2
GACGGACAGGGTCTCGGGACGTGCTAG,-0.837
TTGGATTTCGGGTTTCGATTAGTGCTA,7.74

# Study 3 — technique: competition protein-binding microarray; form: double-stranded DNA, one strand shown; matrix: in vitro; concentration: 2 µM; added: Pho4 competitor, 0.05 µM; reading: higher = stronger binding
# Target: Centromere-binding protein 1, full length, His-tagged (CBF1, Saccharomyces cerevisiae, UniProt P17106, residues 1-351)
# Sequence of UniProt P17106 (whole entry, looked up): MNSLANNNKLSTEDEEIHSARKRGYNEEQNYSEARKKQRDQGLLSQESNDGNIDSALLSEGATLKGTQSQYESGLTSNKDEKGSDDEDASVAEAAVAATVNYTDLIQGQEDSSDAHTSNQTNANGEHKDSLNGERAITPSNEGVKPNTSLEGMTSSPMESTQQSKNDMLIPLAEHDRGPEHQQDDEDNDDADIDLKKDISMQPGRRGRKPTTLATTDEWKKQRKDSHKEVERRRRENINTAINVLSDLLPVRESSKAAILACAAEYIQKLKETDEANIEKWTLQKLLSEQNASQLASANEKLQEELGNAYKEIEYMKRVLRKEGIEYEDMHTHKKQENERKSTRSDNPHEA
# Notes: whole 60-bp probe, lowest competitor level
Sequence,fluorescence intensity
CTCTTATTAACCAATGTCGTGCGGATCAAAATGCTAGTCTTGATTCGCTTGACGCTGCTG,93.5 a.u.
CATACCCAACCTTGAGTTGTGGGTGAAGATATTTGTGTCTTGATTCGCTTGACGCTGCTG,68.9 a.u.
TCATCCCATCCTCGGCACGCATTACCAGCACTCAAAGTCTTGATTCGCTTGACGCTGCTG,66.5 a.u.
GATCTTCTGGGCCGTAGCGTGATGGGGTCTGTAAATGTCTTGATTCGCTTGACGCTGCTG,94.8 a.u.
CCCCACTCCCGCGAGCACGTGCGCGTCCTCGCTGCTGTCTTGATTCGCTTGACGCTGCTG,1980 a.u.
TTTCTTCGACACCATCACGTAAAACAACAACCAGGAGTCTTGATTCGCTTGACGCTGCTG,81.9 a.u.
TCTGACCCCGATCCGCACGCTACTGCGTCGTCGATCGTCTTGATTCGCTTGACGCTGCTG,51.6 a.u.
AGGAAAAGCCAAGATCATAAGCAAGAAAGTTATCCTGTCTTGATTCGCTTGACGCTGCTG,71.8 a.u.
CCTCCTCCAGTTGAACACATGCAAGGTCGCCCACCAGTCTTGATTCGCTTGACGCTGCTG,111 a.u.
CTTCTGTAAATTTGTCACGTGTTTTGACGCGCCCCGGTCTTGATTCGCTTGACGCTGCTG,4700 a.u.
GGCATTATCCTTCCGCACGTTTCTTGGATAATTCATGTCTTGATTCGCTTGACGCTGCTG,135 a.u.
TTTTGCGATAAATTTAACGTGCTTTTGAACAGGATTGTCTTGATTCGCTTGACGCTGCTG,112 a.u.
CGATGGATATATTGTCATGCGGATGCATTTTGGCTGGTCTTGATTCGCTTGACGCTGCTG,205 a.u.
TGCGCAACAACTTGTCACAGGACTTTATGTCTAGAAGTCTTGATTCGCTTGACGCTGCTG,125 a.u.
GTCTTGTCTCATTTTCACGTGAATTTCCCCACTTCAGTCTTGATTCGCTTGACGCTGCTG,708 a.u.
CTAACGAAGGTTTGTCACTGCACTTACAAGCCAAGTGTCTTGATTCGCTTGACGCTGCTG,76.3 a.u.
AAATTACTAAGTTGAGCCGTGGGTGACGCCGTATGAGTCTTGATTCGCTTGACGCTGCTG,59.4 a.u.
TTGAACTGCTGGGATCGGATGACGTTTTGGAGGAAGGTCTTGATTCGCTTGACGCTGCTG,68.7 a.u.
CTTCTGTAAATTTGGTAGGTGGGTGGACGCGCCCCGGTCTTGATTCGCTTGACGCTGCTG,72.5 a.u.
CATACCCAACCTTGTCACGCCACTTAAGATATTTGTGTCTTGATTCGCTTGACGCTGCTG,344 a.u.
CGAGAAGCTTTCGGCCACGTGGGTATCTGGATTCAAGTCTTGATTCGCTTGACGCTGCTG,934 a.u.
GGGCCCGCCCTGGGCCACGTGTTGCCTGCGGACCCGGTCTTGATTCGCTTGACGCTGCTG,719 a.u.
CTAACGAAGGTTTGCCGGGTGGGTGACAAGCCAAGTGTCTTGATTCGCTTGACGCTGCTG,54 a.u.
GTCAGTATCTTCCATCACATGACAATCTTGTGCATCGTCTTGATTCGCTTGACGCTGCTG,1210 a.u.
CTTCTGTAAATTTGGTGCGTGGGTGGACGCGCCCCGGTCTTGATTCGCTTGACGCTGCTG,68.3 a.u.

# Study 4 — technique: protein binding microarray; form: double-stranded DNA, one strand shown; matrix: in vitro; concentration: not given; reference: not given; reading: higher = stronger binding
# Target: Histone acetyltransferase KAT6A, both winged helices, GST fusion (KAT6A, Homo sapiens, UniProt Q92794, residues 1-181)
# Notes: 8-mer, flanks averaged, mean of 2 arrays, mostly near background
# Construct (chain): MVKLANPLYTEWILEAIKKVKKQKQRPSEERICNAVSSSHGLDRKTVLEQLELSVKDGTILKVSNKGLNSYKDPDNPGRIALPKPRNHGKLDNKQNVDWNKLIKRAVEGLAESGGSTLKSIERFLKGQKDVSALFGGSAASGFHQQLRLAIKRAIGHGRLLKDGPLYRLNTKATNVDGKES
Sequence,E-score
CCATGATA,-0.0615
GCACACCA,-0.034
GCAGATGC,-0.0626
ACTAAATA,-0.0448
GATAGCGC,0.316
GAAGTGCC,-0.0171
AACGCCCT,0.0236
AGTTGCAC,-0.116
GACTAGCA,-0.0879
ATAAGAAC,-0.00442
AATTTGCA,-0.127
AAGGGGGG,-0.316
CGGGTGAG,0.0872
TGATGCAA,-0.126
AATGTAGT,-0.129
ACCTTTAT,-0.136
AAGTCCTA,0.0179
CGGTAATA,0.149
AGCTCGCA,-0.113
CATTTACA,-0.0563
TGCCCCCA,-0.22
TAGCGCTA,0.349
GCTAGTCA,-0.095
ATAGATGA,-0.088
GAGGACAA,-0.129

# Some of these lines once more (study 3):
Sequence,fluorescence intensity
GTCTTGTCTCATTTTCACGTGAATTTCCCCACTTCAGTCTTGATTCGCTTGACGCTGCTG,708 a.u.
CTAACGAAGGTTTGTCACTGCACTTACAAGCCAAGTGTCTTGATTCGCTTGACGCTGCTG,76.3 a.u.
AAATTACTAAGTTGAGCCGTGGGTGACGCCGTATGAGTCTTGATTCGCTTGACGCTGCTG,59.4 a.u.
TTGAACTGCTGGGATCGGATGACGTTTTGGAGGAAGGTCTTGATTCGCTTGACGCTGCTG,68.7 a.u.
CTTCTGTAAATTTGGTAGGTGGGTGGACGCGCCCCGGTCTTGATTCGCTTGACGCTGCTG,72.5 a.u.
CATACCCAACCTTGTCACGCCACTTAAGATATTTGTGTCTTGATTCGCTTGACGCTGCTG,344 a.u.
CGAGAAGCTTTCGGCCACGTGGGTATCTGGATTCAAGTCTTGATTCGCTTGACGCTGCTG,934 a.u.
